Experimental data of several laboratories.
Parts stem from different laboratories: compare values within a part only.
Sequence of UniProt Q00536 (whole entry, looked up): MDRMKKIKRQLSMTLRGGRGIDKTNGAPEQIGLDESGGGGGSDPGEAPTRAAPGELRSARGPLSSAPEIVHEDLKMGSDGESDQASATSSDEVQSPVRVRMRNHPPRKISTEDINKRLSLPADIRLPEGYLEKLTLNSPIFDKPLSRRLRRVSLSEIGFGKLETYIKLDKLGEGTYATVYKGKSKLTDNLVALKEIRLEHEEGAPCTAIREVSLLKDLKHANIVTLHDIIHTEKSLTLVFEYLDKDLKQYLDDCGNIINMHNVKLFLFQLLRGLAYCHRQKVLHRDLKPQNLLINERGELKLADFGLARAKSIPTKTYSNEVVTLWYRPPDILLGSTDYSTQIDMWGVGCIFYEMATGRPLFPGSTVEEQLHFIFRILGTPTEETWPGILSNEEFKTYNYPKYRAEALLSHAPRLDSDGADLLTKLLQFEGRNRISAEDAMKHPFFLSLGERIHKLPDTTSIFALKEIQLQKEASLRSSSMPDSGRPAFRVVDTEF
Sequence of UniProt Q9Y5S2 (whole entry, looked up): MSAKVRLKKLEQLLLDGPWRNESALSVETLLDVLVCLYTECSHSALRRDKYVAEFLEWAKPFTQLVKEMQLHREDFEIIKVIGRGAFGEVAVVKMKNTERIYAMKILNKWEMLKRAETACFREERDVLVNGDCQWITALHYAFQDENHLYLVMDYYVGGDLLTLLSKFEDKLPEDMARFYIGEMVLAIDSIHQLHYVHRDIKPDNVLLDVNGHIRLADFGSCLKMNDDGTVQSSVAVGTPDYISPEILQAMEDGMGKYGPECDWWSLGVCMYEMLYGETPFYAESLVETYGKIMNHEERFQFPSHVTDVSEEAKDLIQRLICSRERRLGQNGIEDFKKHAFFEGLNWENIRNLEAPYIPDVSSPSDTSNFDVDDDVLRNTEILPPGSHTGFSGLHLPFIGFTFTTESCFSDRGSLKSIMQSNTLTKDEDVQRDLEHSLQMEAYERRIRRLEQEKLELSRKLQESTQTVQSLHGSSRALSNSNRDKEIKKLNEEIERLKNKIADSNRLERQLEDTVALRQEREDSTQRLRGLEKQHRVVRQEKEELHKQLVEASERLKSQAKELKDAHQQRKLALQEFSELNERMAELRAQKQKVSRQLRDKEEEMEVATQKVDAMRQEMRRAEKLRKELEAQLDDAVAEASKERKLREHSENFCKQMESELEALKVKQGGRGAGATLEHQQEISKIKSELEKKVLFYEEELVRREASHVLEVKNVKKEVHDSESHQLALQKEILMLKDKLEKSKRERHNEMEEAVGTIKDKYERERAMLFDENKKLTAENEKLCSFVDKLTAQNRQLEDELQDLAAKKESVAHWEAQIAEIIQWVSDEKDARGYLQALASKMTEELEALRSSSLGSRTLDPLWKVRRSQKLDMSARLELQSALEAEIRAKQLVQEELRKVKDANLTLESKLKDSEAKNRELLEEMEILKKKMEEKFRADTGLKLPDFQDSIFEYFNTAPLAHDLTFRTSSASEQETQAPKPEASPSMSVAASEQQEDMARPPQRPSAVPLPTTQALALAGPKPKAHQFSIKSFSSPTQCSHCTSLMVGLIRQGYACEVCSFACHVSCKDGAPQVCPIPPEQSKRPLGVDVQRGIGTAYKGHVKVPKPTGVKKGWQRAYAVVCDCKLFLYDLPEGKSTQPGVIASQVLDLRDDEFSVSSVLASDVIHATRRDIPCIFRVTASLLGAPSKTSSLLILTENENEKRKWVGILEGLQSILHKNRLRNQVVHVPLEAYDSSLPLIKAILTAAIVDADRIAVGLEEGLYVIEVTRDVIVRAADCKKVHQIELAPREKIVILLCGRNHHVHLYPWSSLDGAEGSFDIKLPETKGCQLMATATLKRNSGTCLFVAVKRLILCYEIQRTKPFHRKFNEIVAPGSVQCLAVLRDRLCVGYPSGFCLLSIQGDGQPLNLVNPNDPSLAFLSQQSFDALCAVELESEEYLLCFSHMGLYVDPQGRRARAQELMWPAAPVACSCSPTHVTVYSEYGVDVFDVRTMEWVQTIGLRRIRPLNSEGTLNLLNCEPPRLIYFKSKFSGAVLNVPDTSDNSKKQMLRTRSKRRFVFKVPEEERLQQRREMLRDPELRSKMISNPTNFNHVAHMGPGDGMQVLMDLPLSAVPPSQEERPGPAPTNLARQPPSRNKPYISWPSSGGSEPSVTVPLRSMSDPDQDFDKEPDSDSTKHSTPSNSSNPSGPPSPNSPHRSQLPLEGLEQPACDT
Sequence of UniProt P32298 (whole entry, looked up): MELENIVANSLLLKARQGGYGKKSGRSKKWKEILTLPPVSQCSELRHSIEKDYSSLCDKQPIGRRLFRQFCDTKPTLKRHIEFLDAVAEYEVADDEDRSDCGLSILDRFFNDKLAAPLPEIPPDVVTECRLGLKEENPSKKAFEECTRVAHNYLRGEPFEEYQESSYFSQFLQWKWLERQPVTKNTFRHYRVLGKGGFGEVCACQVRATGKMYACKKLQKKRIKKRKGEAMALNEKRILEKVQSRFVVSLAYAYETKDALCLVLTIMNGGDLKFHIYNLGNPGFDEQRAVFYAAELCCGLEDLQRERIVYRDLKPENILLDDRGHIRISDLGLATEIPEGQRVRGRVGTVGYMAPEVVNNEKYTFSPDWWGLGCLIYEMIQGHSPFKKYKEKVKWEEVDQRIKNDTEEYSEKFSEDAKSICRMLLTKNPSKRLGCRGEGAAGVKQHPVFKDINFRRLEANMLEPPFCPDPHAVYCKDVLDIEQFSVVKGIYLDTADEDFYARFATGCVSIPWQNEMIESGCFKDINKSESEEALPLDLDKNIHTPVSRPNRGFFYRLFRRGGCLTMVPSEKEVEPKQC
Sequence of UniProt Q02779 (whole entry, looked up): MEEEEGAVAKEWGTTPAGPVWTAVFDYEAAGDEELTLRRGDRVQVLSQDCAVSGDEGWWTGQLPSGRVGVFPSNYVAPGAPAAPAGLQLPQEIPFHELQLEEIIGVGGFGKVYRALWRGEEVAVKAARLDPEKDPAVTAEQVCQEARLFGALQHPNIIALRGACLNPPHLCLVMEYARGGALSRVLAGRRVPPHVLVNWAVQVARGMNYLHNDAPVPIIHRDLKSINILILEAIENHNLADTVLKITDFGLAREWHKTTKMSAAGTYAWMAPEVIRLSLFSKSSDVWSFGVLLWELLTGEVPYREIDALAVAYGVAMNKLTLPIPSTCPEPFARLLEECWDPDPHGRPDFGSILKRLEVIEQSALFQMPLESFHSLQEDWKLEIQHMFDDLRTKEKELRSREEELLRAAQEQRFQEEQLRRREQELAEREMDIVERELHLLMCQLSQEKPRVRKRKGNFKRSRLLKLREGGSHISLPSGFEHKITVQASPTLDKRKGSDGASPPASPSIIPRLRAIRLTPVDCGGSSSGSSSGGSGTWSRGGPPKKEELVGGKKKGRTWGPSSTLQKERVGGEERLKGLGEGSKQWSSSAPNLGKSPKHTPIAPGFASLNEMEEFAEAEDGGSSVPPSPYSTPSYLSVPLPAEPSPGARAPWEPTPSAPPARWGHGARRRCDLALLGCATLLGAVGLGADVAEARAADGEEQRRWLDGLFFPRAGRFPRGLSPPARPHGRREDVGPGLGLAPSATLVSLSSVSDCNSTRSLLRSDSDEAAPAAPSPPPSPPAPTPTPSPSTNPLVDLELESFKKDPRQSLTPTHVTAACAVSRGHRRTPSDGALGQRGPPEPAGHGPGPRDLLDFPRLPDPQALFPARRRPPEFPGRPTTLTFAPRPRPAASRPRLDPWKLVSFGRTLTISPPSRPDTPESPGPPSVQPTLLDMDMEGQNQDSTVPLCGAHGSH
Sequence of UniProt Q15759 (whole entry, looked up): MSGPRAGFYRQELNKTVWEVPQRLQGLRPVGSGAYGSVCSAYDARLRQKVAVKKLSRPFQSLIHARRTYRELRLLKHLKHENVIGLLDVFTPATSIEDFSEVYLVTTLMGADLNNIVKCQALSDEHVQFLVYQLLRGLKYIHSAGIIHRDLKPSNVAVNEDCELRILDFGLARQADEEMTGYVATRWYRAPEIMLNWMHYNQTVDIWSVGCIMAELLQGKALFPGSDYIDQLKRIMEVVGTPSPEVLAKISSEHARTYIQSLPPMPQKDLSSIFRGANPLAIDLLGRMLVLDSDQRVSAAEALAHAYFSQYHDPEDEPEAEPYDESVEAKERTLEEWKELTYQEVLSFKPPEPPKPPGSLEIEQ
Sequence of UniProt Q9H3Y6 (whole entry, looked up): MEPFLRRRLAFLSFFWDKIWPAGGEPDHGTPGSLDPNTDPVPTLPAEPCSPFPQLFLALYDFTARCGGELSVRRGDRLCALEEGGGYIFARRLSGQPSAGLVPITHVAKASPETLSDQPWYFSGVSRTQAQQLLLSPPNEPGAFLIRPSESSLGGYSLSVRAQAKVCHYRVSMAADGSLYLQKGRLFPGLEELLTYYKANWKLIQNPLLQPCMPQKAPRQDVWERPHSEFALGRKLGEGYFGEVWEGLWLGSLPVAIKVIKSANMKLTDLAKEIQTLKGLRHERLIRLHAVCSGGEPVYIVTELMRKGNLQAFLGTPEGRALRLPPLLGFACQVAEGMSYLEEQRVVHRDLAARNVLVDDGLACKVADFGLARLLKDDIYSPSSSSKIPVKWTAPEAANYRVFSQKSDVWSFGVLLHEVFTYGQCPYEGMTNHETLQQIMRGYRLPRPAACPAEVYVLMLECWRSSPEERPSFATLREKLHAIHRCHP

Block 1 — observed: acetyl-histone H4 peptide binding; technique: AlphaScreen displacement; concentration: 50 µM
Target: Bromodomain-containing protein 4, BD1 (BRD4, Homo sapiens, UniProt O60885)
The inhibition of Cc1cc2nc(C(C#N)=Cc3ccncc3)[nH]c2cc1C is reported as 25.6%.
The inhibition of Brc1ccc(-c2nc(-c3c[nH]c4ccccc34)[nH]c2-c2ccccc2)cc1 is reported as 82.2%.
O=S(=O)(c1cccc2c(I)cccc12)N1CCCNCC1 gave an inhibition of 26.8%.
COc1ccc(-c2nnc(SCC(=O)Nc3ccc(F)cc3F)n2-n2cccc2)cc1 gave an inhibition of 6.7%.
The inhibition of Cc1c(C(N)=O)sc2nc[nH]c(=O)c12 is reported as -3.05%.
COc1ccccc1NC(=O)N=c1[nH]nc(C=Cc2ccccc2)s1 has an inhibition of 26.7%.
The inhibition of COC(=O)CCC(=O)NNC(=O)c1c(O)c2ccccc2[nH]c1=O is reported as 29.2%.
With CCOc1c(Br)ccc2c1sc1nc[nH]c(=O)c12 the inhibition was 8.35%.

Block 2 — observed: cell-free assay; technique: competition with immobilised ligand; concentration: 1 µM
Structure (SMILES): CCC(=O)N[C@H]1CC[C@@H](C(=O)N(C)c2ccc(-c3nc4ccccc4o3)cc2)C1
Proto-oncogene tyrosine-protein kinase receptor Ret (RET, Homo sapiens, UniProt P07949, V804L) — remaining binding: 98%.
The remaining binding was 88% (Cyclin-dependent kinase 16 (CDK16, Homo sapiens, UniProt Q00536)).
It gave 89% for remaining binding (Tyrosine-protein kinase Srms (SRMS, Homo sapiens, UniProt Q9H3Y6)).
Receptor-interacting serine/threonine-protein kinase 2 (RIPK2, Homo sapiens, UniProt O43353) — remaining binding: 100%.
For Mast/stem cell growth factor receptor Kit, autoinhibited (KIT, Homo sapiens, UniProt P10721): remaining binding read 84%.
It gave 91% for remaining binding (Mitogen-activated protein kinase kinase kinase 10 (MAP3K10, Homo sapiens, UniProt Q02779)).

Block 3 — mode: agonist
Target: Beta-1 adrenergic receptor (ADRB1, Homo sapiens, UniProt P08588)
Sequence of UniProt P08588 (whole entry, looked up): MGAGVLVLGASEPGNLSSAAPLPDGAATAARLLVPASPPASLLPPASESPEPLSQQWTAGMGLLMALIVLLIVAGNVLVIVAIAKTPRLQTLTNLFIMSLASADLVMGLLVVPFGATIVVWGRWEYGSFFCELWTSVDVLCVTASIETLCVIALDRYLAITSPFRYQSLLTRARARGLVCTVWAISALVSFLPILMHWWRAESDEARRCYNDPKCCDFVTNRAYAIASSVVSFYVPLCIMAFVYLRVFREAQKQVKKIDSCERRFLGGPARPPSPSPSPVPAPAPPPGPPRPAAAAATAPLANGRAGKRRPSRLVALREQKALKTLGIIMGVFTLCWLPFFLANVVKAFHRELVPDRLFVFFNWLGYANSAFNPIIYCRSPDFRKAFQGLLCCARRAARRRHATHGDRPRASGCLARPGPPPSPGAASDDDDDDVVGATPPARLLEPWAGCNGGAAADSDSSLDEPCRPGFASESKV
With O=C(NCC(O)CO)c1ccc(OC2CCN(CCc3ccccc3)CC2)cc1 (stereo not drawn) the EC50 was ≥ 100 µM.
For c1ccc(-c2cccc(-n3ccnc3-c3cc4n(n3)CCCNC4)c2)nc1, the EC50 was ≥ 100 µM.
For Cc1oc(C(O)c2ccccc2)nc1C(=O)NCCc1c[nH]cn1 (stereo not drawn), the EC50 was ≥ 100 µM.
With Cn1c(=O)n(-c2ccc(N3CCN(C(=O)OC(C)(C)C)CC3)c(C(F)(F)F)c2)c2c3cc(-c4cncc5ccccc45)ccc3ncc21 the EC50 was ≥ 100 µM.
Cc1ccc(Nc2nc(N3CCOCC3)nc3nccnc23)c(C)c1 has an EC50 of ≥ 100 µM.
With COc1cc(CNCCOc2ccccc2)ccc1OCC(O)CN1CCOCC1 (stereo not drawn) the EC50 was ≥ 100 µM.
Cn1cc(-c2cc(=O)c3ccnc(NC4CCOCC4)c3o2)cn1 has an EC50 of ≥ 100 µM.
The EC50 of Clc1ccccc1N1CCN(C2CCNCC2)CC1 is reported as ≥ 100 µM.

Block 4 — cell line: A-375; concentration: 100 µM; time: 36 h
CCn1cc(C(=O)O)c(=O)c2cc3c(cc21)OCO3 has a viability of 106%.
The viability of COc1ncnc(NS(=O)(=O)c2ccc(N)cc2)c1OC is reported as 109%.
With CCn1nc(C(=O)O)c(=O)c2cc3c(cc21)OCO3 the viability was 122%.
The viability of Nc1ccc(/N=N/c2ccccc2)c(N)n1 is reported as 32.8%.
The viability of O=C(C[S+]([O-])Cc1ccco1)NC/C=C\COc1cc(CN2CCCCC2)ccn1 (stereo not drawn) is reported as 98.2%.
For O=C(O)CN(CCN(CC(=O)O)CC(=O)O)CC(=O)O, the viability was 91.8%.
With CC(CCc1ccc(O)cc1)NCC(O)c1ccc(O)cc1 (stereo not drawn) the viability was 115%.

Block 5 — observed: enzyme activity; mode: inhibitor; concentration: 0.5 µM; reference: control
Structure (SMILES): O=S(=O)(NCCNC/C=C/c1ccc(Br)cc1)c1cccc2cnccc12
Misshapen-like kinase 1 (MINK1, Homo sapiens, UniProt Q8N4C8) — remaining activity: 91.1%.
G protein-coupled receptor kinase 4 (GRK4, Homo sapiens, UniProt P32298) — remaining activity: 95.8%.
It gave 93.8% for remaining activity (Discoidin domain-containing receptor 2 (DDR2, Homo sapiens, UniProt Q16832)).
For Vascular endothelial growth factor receptor 2 (KDR, Homo sapiens, UniProt P35968): remaining activity read 79.1%.
The remaining activity was 85.5% (Cyclin-dependent kinase 9, with cyclin K (CDK9, Homo sapiens, UniProt P50750)).
It gave 90.5% for remaining activity (Dual specificity mitogen-activated protein kinase kinase 1 (MAP2K1, Homo sapiens, UniProt Q02750)).
It gave 95.2% for remaining activity (Calcium/calmodulin-dependent protein kinase type IV (CAMK4, Homo sapiens, UniProt Q16566)).
It gave 90.1% for remaining activity (Serine/threonine-protein kinase DCLK2 (DCLK2, Homo sapiens, UniProt Q8N568)).
The remaining activity was 105% (Mitogen-activated protein kinase 14 (MAPK14, Homo sapiens, UniProt Q16539)).
It gave 87.2% for remaining activity (Mitogen-activated protein kinase 11 (MAPK11, Homo sapiens, UniProt Q15759)).
Cyclin-dependent kinase 1, with cyclin A (CDK1, Homo sapiens, UniProt P06493) — remaining activity: 95.3%.
Serine/threonine-protein kinase PAK 3 (PAK3, Homo sapiens, UniProt O75914) — remaining activity: 103%.
For Serine/threonine-protein kinase MRCK beta (CDC42BPB, Homo sapiens, UniProt Q9Y5S2): remaining activity read 99.5%.
Dual specificity protein kinase CLK3 (CLK3, Homo sapiens, UniProt P49761) — remaining activity: 87.6%.
It gave 89.3% for remaining activity (Serine/threonine-protein kinase MARK2 (MARK2, Homo sapiens, UniProt Q7KZI7)).
It gave 86.8% for remaining activity (Tyrosine-protein kinase TXK (TXK, Homo sapiens, UniProt P42681)).
Dual specificity protein kinase CLK4 (CLK4, Homo sapiens, UniProt Q9HAZ1) — remaining activity: 119%.
It gave 98.2% for remaining activity (Serine/threonine-protein kinase PLK3 (PLK3, Homo sapiens, UniProt Q9H4B4)).
It gave 56.9% for remaining activity (cGMP-dependent protein kinase 2 (PRKG2, Homo sapiens, UniProt Q13237)).
It gave 94.3% for remaining activity (Serine/threonine-protein kinase Nek3 (NEK3, Homo sapiens, UniProt P51956)).
The remaining activity was 108% (Mitogen-activated protein kinase 1 (MAPK1, Homo sapiens, UniProt P28482)).
For Rho-associated protein kinase 1 (ROCK1, Homo sapiens, UniProt Q13464): remaining activity read 37.8%.
It gave 38.8% for remaining activity (Ribosomal protein S6 kinase alpha-4 (RPS6KA4, Homo sapiens, UniProt O75676)).
The remaining activity was 100% (Calcium/calmodulin-dependent protein kinase type 1B (PNCK, Homo sapiens, UniProt Q6P2M8)).
It gave 94.3% for remaining activity (MAP/microtubule affinity-regulating kinase 4 (MARK4, Homo sapiens, UniProt Q96L34)).

Excerpt of the above (block 5):
For Serine/threonine-protein kinase MRCK beta (CDC42BPB, Homo sapiens, UniProt Q9Y5S2): remaining activity read 99.5%.
Dual specificity protein kinase CLK3 (CLK3, Homo sapiens, UniProt P49761) — remaining activity: 87.6%.
It gave 89.3% for remaining activity (Serine/threonine-protein kinase MARK2 (MARK2, Homo sapiens, UniProt Q7KZI7)).
It gave 86.8% for remaining activity (Tyrosine-protein kinase TXK (TXK, Homo sapiens, UniProt P42681)).
Dual specificity protein kinase CLK4 (CLK4, Homo sapiens, UniProt Q9HAZ1) — remaining activity: 119%.
It gave 98.2% for remaining activity (Serine/threonine-protein kinase PLK3 (PLK3, Homo sapiens, UniProt Q9H4B4)).
It gave 56.9% for remaining activity (cGMP-dependent protein kinase 2 (PRKG2, Homo sapiens, UniProt Q13237)).
It gave 94.3% for remaining activity (Serine/threonine-protein kinase Nek3 (NEK3, Homo sapiens, UniProt P51956)).
The remaining activity was 108% (Mitogen-activated protein kinase 1 (MAPK1, Homo sapiens, UniProt P28482)).
